# Measurements pooled from the literature.
# Each numbered part is a random draw from the data of one study; scales do not carry over between parts.

# Study 1
# Target: Interferon regulatory factor 5, full length, phosphomimetic (IRF5, Homo sapiens, UniProt Q13568-2, residues 1-514, K96S/S451D/S453D/S456D/S462D)
# Method: protein-binding microarray
# Molecule type: double-stranded DNA, one strand shown
# Matrix: in vitro
# Tested at: 250 nM
# Notes: 60-bp whole probe
# Together with: salmon DNA 0.4 mg/ml
# Relative to: random background probes
# Reading: higher = stronger binding
# All sequences stand within: GCCTAGCAC … GTCTTGATTCGCTTGACGCTGCTG
Strand,log fluorescence [z-score]
TTAGAACTGGGATATCGATTAGTGCTA,1.23
GACGGACTGGGGACTGGTGACGTGCTA,-0.728
TTTATTTTCTGAATGCCCTCGTGCTAG,2.13
TTAGATTTCAGACTGGATCAGTGCTAG,0.247
GACGGTTTCGGGGCTGGGGACGTGCTA,3.97
TCACCTTTCCAAATACCACTGTGCTAG,0.623
TTAGAGTTCGGGACTGGATTAGTGCTA,-0.272

# Study 2
# Target: Histone acetyltransferase KAT6A, winged helix 2, GST fusion (KAT6A, Homo sapiens, UniProt Q92794, residues 85-181)
# Method: protein binding microarray
# Molecule type: double-stranded DNA, one strand shown
# Matrix: in vitro
# Tested at: not given
# Notes: 8-mer, flanks averaged, mean of 2 arrays, mostly near background
# Relative to: not given
# Reading: higher = stronger binding
# Residues (chain): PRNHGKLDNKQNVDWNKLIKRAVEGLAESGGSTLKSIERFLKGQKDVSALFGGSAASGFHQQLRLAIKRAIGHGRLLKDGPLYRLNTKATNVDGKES
Strand,E-score
GGGTACAC,-0.103
CTGTCTGA,0.0533
CATCGTTC,-0.00809
GCAGTTAC,-0.0383
CGTACAAC,-0.105
AGTGTAAG,-0.191

# Study 3
# Target: Sal-like protein 4, full length isoform A (SALL4, Homo sapiens, UniProt Q9UJQ4, residues 1-1053)
# Chain of UniProt Q9UJQ4 (whole entry, looked up): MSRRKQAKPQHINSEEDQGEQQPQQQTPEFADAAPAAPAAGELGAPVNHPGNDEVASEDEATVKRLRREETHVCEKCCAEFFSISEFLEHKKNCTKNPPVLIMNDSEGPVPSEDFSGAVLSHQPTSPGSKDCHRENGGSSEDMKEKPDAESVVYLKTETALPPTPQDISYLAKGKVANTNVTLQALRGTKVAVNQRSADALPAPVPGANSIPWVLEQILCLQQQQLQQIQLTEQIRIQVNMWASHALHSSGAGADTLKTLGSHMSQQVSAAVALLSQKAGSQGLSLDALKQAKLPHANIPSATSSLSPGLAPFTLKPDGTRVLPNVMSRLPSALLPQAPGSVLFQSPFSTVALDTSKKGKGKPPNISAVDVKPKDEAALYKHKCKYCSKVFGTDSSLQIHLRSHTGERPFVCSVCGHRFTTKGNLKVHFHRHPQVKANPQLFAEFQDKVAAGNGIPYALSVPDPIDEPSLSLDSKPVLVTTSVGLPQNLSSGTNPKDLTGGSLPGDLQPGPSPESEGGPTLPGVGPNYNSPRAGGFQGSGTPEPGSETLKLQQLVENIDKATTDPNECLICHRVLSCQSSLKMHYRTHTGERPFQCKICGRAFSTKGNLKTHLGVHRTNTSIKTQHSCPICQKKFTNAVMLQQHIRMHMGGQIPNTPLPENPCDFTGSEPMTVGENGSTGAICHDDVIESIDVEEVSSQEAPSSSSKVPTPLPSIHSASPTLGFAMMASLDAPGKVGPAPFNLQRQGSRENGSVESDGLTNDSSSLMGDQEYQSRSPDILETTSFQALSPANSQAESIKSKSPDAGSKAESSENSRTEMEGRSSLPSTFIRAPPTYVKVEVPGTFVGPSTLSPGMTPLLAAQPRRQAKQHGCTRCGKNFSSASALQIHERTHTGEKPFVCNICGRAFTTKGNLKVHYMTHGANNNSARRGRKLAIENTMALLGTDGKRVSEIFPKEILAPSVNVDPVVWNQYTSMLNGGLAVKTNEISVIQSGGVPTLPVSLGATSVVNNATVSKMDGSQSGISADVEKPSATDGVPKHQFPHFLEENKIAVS
# Method: universal PBM
# Molecule type: double-stranded DNA, one strand shown
# Matrix: in vitro
# Tested at: 600 nM
# Notes: 8-mer, flanks averaged, mean of replicates
# Reading: higher = stronger binding
Strand,E-score
ATTAATCG,0.313
AACGTTGG,-0.0216
ACCGTCAT,0.0207
AACTGCAT,0.165
CCTATGCC,-0.00668
GAACATCA,0.0555
CGTAACCC,-0.207

# Other studies, line by line
Substance,target,assay,test system,setting,scale,measurement,result
"PhoQ, residues 284 288 289 292 302 303 TLSLKA","PhoP, residues 12 14 15 18 19 STWGI (Escherichia coli, UniProt P23836)","Sort-seq, item: YFP reporter",E. coli,"PhoQ-PhoP variant library, together with: 10 µM Mg2+","relative to: high Mg2+ state, higher = stronger signaling",fold induction,3.23

# A few entries again (study 1):
Strand,log fluorescence [z-score]
GACGGTTTCGGGGCTGGGGACGTGCTA,3.97
TCACCTTTCCAAATACCACTGTGCTAG,0.623
